Results collected from several papers.
Every numbered part comes from another study and shows a few of its results, in no order.
Sequence of UniProt Q5XXA6 (whole entry, unmodified, looked up): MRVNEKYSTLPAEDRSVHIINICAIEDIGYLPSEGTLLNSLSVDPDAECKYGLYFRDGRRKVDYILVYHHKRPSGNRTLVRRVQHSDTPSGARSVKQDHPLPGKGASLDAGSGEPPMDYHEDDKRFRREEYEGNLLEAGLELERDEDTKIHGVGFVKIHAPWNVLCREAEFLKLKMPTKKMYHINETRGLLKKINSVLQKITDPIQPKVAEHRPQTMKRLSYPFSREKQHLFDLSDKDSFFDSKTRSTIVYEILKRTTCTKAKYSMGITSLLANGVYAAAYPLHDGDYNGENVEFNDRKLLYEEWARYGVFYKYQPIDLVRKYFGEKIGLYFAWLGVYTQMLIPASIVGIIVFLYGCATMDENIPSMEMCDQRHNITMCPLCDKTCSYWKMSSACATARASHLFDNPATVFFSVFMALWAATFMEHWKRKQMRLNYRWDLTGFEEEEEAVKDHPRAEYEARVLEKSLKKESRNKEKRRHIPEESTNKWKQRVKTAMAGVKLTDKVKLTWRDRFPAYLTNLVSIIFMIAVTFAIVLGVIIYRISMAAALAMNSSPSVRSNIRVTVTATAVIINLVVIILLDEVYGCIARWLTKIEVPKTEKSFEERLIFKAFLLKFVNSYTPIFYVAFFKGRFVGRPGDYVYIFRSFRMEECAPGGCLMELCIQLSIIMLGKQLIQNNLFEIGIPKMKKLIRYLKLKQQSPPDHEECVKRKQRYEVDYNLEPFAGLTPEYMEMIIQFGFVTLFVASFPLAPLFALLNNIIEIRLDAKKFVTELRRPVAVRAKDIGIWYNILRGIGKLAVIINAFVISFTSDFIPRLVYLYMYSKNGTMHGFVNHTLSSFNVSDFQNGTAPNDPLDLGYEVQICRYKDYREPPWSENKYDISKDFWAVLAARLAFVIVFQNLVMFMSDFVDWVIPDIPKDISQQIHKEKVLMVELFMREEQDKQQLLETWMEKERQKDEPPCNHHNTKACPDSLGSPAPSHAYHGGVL
Sequence of UniProt Q96GD4 (whole entry, looked up): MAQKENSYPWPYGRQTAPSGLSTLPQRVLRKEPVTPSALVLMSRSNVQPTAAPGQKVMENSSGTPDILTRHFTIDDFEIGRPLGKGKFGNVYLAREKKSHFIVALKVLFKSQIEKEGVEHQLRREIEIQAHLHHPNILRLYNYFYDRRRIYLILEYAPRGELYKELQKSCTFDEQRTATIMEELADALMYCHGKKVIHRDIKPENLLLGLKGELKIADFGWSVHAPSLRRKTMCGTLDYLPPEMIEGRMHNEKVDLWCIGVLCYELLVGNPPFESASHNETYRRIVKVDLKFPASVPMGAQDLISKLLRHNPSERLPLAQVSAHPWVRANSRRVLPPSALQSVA
Sequence of UniProt Q16513 (whole entry, looked up): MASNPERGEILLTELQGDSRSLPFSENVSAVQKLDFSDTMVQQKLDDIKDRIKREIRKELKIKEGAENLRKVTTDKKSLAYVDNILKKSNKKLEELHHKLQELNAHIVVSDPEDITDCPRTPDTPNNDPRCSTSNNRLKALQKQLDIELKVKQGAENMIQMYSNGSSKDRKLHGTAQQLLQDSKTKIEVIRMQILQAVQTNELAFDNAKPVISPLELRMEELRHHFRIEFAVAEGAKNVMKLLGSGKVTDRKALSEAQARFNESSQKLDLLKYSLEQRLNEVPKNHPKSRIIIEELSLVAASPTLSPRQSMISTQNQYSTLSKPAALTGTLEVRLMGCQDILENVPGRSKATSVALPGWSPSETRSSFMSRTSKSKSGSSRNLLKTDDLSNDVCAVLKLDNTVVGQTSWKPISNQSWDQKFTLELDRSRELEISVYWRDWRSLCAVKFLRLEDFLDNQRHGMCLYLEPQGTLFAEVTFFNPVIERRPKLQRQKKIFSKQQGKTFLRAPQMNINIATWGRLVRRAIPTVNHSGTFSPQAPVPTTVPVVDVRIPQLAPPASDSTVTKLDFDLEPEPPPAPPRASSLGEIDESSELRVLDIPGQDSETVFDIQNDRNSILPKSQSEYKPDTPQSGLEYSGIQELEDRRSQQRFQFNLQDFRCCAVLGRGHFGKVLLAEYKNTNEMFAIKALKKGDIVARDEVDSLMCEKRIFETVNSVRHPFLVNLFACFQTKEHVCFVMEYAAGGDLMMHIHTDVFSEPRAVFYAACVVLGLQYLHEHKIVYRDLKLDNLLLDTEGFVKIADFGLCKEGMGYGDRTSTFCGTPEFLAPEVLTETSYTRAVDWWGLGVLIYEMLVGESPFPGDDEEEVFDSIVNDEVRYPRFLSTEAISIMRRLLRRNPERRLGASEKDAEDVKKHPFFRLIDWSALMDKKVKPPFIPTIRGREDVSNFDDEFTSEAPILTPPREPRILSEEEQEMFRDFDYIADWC
Sequence of UniProt P21709 (whole entry, looked up): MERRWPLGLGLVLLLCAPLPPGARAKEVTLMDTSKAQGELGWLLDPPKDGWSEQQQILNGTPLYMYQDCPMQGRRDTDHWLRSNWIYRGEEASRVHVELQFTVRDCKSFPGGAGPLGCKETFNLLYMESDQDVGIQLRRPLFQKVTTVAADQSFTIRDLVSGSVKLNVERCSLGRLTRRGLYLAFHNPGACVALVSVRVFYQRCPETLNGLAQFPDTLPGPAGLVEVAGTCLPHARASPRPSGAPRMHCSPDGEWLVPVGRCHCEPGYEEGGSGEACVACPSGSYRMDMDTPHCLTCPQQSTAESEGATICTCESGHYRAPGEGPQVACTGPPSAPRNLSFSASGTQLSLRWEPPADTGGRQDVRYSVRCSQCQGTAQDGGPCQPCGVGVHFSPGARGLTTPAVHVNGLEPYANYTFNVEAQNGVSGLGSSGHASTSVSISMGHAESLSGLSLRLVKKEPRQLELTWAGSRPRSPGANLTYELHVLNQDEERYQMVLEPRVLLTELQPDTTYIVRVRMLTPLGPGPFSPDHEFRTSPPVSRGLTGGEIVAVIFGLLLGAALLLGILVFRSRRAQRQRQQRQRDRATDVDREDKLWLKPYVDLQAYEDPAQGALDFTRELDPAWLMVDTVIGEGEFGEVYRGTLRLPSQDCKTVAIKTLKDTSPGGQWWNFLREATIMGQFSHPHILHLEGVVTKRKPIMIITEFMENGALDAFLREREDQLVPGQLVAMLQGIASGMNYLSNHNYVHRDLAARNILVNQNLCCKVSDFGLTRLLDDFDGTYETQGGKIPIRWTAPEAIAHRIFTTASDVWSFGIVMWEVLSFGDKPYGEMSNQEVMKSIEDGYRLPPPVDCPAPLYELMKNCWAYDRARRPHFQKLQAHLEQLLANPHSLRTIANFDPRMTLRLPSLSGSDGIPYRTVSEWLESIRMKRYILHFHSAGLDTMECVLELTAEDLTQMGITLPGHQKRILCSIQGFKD
Sequence of UniProt P11802 (whole entry, looked up): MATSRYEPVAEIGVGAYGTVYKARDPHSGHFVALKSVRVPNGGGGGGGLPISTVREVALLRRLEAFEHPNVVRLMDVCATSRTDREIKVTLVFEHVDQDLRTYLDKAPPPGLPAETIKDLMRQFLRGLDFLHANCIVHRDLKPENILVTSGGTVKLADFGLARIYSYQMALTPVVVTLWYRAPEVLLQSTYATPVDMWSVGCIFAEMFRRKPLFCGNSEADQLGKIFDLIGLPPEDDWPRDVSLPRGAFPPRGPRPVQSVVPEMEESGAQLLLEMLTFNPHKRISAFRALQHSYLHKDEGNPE

Block 1 — Structure (SMILES): C=CCc1ccc(O)c(-c2ccc(O)c(CC=C)c2)c1; effect on: chloride current; method: whole-cell voltage clamp
target	mode	notes	IC50 [µM]
Anoctamin-1 (ANO1, Homo sapiens, UniProt Q5XXA6, del476-501/F807A)	–	membrane voltage -80 mV	40.1
Anoctamin-1 (ANO1, Homo sapiens, UniProt Q5XXA6, del476-501/F628I)	inhibitor	F602I mutant at -40 mV	13.7
Anoctamin-1 (ANO1, Homo sapiens, UniProt Q5XXA6, del476-501/F803A)	inhibitor	mutant F777A	14.6

Block 2 — method: protein-binding microarray; form: double-stranded DNA, one strand shown; medium: in vitro; concentration: not given; reading: higher = stronger binding
Target: Cyclic AMP-dependent transcription factor ATF-1 (ATF1, Homo sapiens, UniProt P18846, residues 1-271, full length assumed)
Notes: k-mer, scored over probes, only values ≥0.25
Construct (chain): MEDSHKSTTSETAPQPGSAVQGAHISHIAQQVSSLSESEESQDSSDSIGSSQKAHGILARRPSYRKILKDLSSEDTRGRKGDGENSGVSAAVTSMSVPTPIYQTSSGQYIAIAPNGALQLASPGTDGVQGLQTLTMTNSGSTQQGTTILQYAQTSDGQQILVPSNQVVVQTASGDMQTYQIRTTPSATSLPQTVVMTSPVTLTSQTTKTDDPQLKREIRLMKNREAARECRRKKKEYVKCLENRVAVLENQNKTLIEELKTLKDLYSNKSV
Oligonucleotide	E-score
GACGCGC	0.293
ACGTGAG	0.267
ACGTTTG	0.283
CGTAACA	0.344
CCACACG	0.275
AAGTGAC	0.29
CTGACGC	0.388
CGATACG	0.253

Block 3 — method: RNA Bind-n-Seq; form: RNA; medium: in vitro; concentration: 365 nM; relative to: no-protein control; reading: higher = stronger binding
Target: RNA binding protein fox-1 homolog 2, RRM domain, GST-SBP tag (RBFOX2, Homo sapiens, UniProt O43251-10, residues 100-194)
Notes: natural RNA segment, single round, ends assumed
Residues (chain): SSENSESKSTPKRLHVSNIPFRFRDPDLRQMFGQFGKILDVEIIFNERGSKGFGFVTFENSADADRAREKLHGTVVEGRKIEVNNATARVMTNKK
Oligonucleotide	RBNS enrichment (R)
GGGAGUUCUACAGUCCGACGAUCCAUUUUCUGCCCCCCCAAAAUCUGUUGAAAUGAUUCACUGAUGCAAAACAUUCACCCGUAAUAGACUGAGAAUUGAGCCUUAACUUCAGAUUAACUUGUGAGAAUCAGGAUGGAAUUCUCGGGUGCCAA	0.517
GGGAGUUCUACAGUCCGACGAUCCUGCUUUCUGAGCCCUGGGCCUGUGUCCUCCUAGAACUUCCAGGUUCCCGUUGCUUUGUUUUUCUGUCUGAAGGAAUCUUUUUCUUAGUCUUGUGAGCAGAUGUACCUGAUGGAAUUCUCGGGUGCCAA	9.55
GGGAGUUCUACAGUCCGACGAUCUAUCAGAUUGGUAACUUAUCGCCUGUUGUCCAGAUUGGCACGAACCUUUUCUUCCACUUAAUUAUUUUUUUAGGAUUUUGCUUUGAUUGUGUUUAUGUCAUGGGUCAUUUUGGAAUUCUCGGGUGCCAA	0.431
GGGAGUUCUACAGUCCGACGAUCUUUUCCAGUUAUACGAGAUGCCAAAAUAGCACUUUUGUAUUUAACAGAGUGCUUUAUGCUUUUUAAUGACUGUUAGUGUUUCUCACAUGCCUGUGAGAUACAUCAGCAUUUGGAAUUCUCGGGUGCCAA	0.314
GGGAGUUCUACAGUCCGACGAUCUCACUUGGAUCUUGUGGUGAGGACGGCCCCAUCUUUCUUGCCACAGAUUGAGGCCACUUUUGAGCAAGGGAGAUCCUGGAGUUAAGACAGGUGUUGGGGGCAGCCUGUAUUGGAAUUCUCGGGUGCCAA	0.899
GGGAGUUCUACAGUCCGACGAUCCUGUCUGCCCUCCCCAGGGGUGGAGGAGUCUCUGGGCCCCAGGAGGAUUCCCUCCCGGAGACUCGCACGGUGCUCCCUGCUCACGCGUUGUCACAGUUAGUCCGGAAAUGUGGAAUUCUCGGGUGCCAA	0.784
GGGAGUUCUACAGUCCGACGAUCCCUUUUAGGAUCUAGACAUACGGGUAAGACAUGACUCUCCCUGGAGCAGCUCUCUGCAGAACAAAAACUAAUUCAAUGAAGCAGCUGUCCCUCCCAGUGUUUGCAGAGCUUGGAAUUCUCGGGUGCCAA	0.481
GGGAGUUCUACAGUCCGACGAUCUACCUUUCCCAGAUUAGGGGGAUGGUAUGUGGGGAGCAGAUAGCGGAAAUGCUUAGAAAGAUAAGGGGGACCACCCACAGCUGGUCGUGAGAACAGGGAGACAGUGUGUGUGGAAUUCUCGGGUGCCAA	1.41

Block 4 — mode: antagonist
Target: Beta-1 adrenergic receptor (ADRB1, Homo sapiens, UniProt P08588)
Sequence of UniProt P08588 (whole entry, looked up): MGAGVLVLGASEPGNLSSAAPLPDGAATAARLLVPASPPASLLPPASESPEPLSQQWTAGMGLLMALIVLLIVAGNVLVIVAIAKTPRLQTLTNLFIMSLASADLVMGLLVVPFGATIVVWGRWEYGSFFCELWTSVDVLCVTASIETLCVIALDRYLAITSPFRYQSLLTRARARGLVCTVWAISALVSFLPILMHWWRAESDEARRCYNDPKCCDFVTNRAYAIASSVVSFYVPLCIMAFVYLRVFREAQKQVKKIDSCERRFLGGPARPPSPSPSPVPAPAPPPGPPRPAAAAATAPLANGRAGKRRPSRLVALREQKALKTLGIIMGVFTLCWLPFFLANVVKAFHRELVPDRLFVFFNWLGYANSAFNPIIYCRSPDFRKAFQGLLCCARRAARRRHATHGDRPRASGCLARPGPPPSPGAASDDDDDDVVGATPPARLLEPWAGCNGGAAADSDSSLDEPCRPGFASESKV
SMILES	IC50 [µM]
O=C1c2cnc(-c3ccsc3)nc2OCCN1c1ccccc1	≥ 100
Cc1ccc(C)c(-c2cc(C)c3ccccc3n2)c1	≥ 100
CC(=O)Oc1c(C)cc(OCC(O)CNC(C)C)c(C)c1C (centres unmarked)	≥ 100
O=C1c2cc(N3CCOCC3)nc(-c3cccc(O)c3)c2CN1CC(F)(F)F	≥ 100

Block 5 — species: mouse; medium: microsomes or S9; concentration: 2 µM; time: 0.5 h
SMILES	remaining compound [%]
Cc1nn(C(C)C(=O)N(C)Cc2cnn(C)c2)cc1Br (centres unmarked)	61.3
O=S(=O)(NC1CCCCC1)c1ccc(-c2nnc(C3CCC3)o2)s1	27.6
CCCn1c(=O)c2ccc(C(=O)NC(C)C)cc2n2c(=O)n(Cc3ccc(C)cc3)nc12	25.9
O=c1[nH]c(N2CCCCC2)nc2ncc3c(c12)-c1ccccc1C3	1.62

Block 6 — concentration: 1 µM
Compound: Cc1cc(NC(=O)c2cccc(S(F)(F)(F)(F)F)c2)cc(-n2ccn3nc(-c4cccnc4)cc23)c1
target	effect on	method	remaining binding
PRKG2 (Homo sapiens, UniProt Q13237)	cell-free assay	competition with immobilised ligand	100%
NEK4 (Homo sapiens, UniProt P51957)	cell-free assay	competition with immobilised ligand	92.9%
SIK1 (Homo sapiens, UniProt P57059)	–	competition binding	100%
PIP4K2B (Homo sapiens, UniProt P78356)	cell-free assay	competition with immobilised ligand	100%
FLT3 (Homo sapiens, UniProt P36888, ITD)	cell-free assay	competition with immobilised ligand	95.8%
Aurora kinase B (AURKB, Homo sapiens, UniProt Q96GD4)	cell-free assay	competition with immobilised ligand	82%
LTK (Homo sapiens, UniProt P29376)	cell-free assay	competition with immobilised ligand	100%
EPHA1 (Homo sapiens, UniProt P21709)	cell-free assay	competition with immobilised ligand	100%
TEC (Homo sapiens, UniProt P42680)	cell-free assay	competition with immobilised ligand	100%
CILK1 (Homo sapiens, UniProt Q9UPZ9)	cell-free assay	competition with immobilised ligand	64.2%
PKN2 (Homo sapiens, UniProt Q16513)	cell-free assay	competition with immobilised ligand	100%
SGK2 (Homo sapiens, UniProt Q9HBY8)	cell-free assay	competition with immobilised ligand	100%
ROCK2 (Homo sapiens, UniProt O75116)	cell-free assay	competition with immobilised ligand	87.6%
MAPKAPK5 (Homo sapiens, UniProt Q8IW41)	cell-free assay	competition with immobilised ligand	100%
Cyclin-dependent kinase 4, with cyclin D3 (CDK4, Homo sapiens, UniProt P11802)	cell-free assay	competition with immobilised ligand	100%
IRAK3 (Homo sapiens, UniProt Q9Y616)	cell-free assay	competition with immobilised ligand	100%
EIF2AK2 (Homo sapiens, UniProt P19525)	cell-free assay	competition with immobilised ligand	72.7%
EGFR (Homo sapiens, UniProt P00533, A750P/del747-749)	cell-free assay	competition with immobilised ligand	98.7%
NEK7 (Homo sapiens, UniProt Q8TDX7)	cell-free assay	competition with immobilised ligand	100%
Tyrosine-protein kinase ABL1, phosphorylated (ABL1, Homo sapiens, UniProt P00519)	cell-free assay	competition with immobilised ligand	73.6%

Excerpt of the above (block 6):
target	effect on	method	remaining binding
Tyrosine-protein kinase ABL1, phosphorylated (ABL1, Homo sapiens, UniProt P00519)	cell-free assay	competition with immobilised ligand	73.6%
SGK2 (Homo sapiens, UniProt Q9HBY8)	cell-free assay	competition with immobilised ligand	100%
MAPKAPK5 (Homo sapiens, UniProt Q8IW41)	cell-free assay	competition with immobilised ligand	100%
PKN2 (Homo sapiens, UniProt Q16513)	cell-free assay	competition with immobilised ligand	100%
NEK4 (Homo sapiens, UniProt P51957)	cell-free assay	competition with immobilised ligand	92.9%
EGFR (Homo sapiens, UniProt P00533, A750P/del747-749)	cell-free assay	competition with immobilised ligand	98.7%
ROCK2 (Homo sapiens, UniProt O75116)	cell-free assay	competition with immobilised ligand	87.6%
